Measurements of several laboratories.
Lines come from different studies, so protocols differ.
TMPRSS2: Transmembrane protease serine 2 (TMPRSS2, Homo sapiens, UniProt O15393)
Sequence of UniProt O15393 (whole entry, looked up): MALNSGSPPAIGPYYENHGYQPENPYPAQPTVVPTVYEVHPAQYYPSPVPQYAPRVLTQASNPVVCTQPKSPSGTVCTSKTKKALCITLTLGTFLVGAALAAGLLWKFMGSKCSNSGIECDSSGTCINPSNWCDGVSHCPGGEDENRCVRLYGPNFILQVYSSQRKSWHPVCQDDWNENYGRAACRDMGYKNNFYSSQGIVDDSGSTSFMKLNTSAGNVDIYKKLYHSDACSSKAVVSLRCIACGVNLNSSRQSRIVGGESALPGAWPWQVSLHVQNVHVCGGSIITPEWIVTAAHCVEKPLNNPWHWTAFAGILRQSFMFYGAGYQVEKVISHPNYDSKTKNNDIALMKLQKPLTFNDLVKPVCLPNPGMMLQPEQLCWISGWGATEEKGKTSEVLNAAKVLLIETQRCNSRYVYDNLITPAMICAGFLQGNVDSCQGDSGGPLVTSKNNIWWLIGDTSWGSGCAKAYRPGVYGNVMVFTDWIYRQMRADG
Sequence of UniProt P00519 (whole entry, unmodified, looked up): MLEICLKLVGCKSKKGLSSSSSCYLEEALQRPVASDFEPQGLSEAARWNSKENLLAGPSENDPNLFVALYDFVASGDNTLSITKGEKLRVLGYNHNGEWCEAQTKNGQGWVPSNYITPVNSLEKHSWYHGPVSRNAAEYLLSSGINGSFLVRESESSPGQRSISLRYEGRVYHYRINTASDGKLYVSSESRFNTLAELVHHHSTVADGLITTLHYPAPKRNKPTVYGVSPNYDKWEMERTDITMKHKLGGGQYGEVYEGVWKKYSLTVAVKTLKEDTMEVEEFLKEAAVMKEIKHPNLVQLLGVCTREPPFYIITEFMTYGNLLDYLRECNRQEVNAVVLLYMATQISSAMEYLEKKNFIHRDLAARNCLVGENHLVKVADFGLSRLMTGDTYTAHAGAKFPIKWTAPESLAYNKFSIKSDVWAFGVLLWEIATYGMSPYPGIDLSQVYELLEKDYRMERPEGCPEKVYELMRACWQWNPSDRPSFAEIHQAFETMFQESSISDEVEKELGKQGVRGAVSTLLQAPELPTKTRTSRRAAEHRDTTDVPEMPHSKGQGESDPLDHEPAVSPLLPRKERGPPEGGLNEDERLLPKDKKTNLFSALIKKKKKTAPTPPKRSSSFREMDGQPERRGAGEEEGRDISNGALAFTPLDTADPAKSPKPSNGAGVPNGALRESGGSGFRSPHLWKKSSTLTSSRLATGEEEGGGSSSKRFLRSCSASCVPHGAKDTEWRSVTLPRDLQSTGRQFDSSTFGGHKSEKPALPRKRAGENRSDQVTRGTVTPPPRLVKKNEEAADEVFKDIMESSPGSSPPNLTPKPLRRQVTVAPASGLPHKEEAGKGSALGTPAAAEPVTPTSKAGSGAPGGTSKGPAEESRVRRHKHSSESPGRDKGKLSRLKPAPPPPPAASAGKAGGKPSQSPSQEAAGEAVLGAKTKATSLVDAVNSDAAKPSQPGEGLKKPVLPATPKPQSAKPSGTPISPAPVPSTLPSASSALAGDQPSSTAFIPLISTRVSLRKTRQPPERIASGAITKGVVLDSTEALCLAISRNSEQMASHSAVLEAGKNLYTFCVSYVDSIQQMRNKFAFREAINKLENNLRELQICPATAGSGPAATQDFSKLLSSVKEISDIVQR
Sequence of UniProt P51617 (whole entry, looked up): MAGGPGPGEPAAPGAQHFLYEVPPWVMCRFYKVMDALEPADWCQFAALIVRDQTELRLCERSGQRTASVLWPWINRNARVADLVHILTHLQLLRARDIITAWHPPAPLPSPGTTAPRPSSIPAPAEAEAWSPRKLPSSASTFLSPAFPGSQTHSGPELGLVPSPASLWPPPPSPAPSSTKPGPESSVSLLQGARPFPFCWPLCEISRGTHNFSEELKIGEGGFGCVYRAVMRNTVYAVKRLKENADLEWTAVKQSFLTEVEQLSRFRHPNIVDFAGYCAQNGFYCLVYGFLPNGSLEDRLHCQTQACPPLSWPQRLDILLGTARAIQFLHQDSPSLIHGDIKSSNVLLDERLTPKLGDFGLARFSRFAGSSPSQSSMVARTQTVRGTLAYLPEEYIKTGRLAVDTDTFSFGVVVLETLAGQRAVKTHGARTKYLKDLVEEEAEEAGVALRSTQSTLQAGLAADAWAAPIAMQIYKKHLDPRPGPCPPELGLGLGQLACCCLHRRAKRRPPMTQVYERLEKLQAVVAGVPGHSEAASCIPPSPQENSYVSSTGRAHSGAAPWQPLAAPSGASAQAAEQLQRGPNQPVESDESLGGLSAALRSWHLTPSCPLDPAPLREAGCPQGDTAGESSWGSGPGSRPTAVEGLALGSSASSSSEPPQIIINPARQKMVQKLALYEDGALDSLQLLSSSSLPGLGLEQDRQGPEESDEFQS
Sequence of UniProt P0C1S8 (whole entry, looked up): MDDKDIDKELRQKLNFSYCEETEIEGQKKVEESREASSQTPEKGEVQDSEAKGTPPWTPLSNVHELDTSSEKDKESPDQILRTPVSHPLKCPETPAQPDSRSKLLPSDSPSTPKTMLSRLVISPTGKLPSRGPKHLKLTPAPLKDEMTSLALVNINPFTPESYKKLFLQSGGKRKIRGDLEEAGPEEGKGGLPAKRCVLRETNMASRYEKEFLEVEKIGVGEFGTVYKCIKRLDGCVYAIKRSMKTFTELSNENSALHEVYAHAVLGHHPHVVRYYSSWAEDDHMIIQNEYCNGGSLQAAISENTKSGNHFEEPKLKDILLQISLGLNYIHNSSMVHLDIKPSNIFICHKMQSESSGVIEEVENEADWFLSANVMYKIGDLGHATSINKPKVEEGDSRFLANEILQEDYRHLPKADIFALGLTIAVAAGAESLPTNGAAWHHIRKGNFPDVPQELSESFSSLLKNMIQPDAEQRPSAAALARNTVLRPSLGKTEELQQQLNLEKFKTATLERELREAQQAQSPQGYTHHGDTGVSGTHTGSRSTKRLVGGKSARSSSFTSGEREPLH
Sequence of UniProt Q9H422 (whole entry, looked up): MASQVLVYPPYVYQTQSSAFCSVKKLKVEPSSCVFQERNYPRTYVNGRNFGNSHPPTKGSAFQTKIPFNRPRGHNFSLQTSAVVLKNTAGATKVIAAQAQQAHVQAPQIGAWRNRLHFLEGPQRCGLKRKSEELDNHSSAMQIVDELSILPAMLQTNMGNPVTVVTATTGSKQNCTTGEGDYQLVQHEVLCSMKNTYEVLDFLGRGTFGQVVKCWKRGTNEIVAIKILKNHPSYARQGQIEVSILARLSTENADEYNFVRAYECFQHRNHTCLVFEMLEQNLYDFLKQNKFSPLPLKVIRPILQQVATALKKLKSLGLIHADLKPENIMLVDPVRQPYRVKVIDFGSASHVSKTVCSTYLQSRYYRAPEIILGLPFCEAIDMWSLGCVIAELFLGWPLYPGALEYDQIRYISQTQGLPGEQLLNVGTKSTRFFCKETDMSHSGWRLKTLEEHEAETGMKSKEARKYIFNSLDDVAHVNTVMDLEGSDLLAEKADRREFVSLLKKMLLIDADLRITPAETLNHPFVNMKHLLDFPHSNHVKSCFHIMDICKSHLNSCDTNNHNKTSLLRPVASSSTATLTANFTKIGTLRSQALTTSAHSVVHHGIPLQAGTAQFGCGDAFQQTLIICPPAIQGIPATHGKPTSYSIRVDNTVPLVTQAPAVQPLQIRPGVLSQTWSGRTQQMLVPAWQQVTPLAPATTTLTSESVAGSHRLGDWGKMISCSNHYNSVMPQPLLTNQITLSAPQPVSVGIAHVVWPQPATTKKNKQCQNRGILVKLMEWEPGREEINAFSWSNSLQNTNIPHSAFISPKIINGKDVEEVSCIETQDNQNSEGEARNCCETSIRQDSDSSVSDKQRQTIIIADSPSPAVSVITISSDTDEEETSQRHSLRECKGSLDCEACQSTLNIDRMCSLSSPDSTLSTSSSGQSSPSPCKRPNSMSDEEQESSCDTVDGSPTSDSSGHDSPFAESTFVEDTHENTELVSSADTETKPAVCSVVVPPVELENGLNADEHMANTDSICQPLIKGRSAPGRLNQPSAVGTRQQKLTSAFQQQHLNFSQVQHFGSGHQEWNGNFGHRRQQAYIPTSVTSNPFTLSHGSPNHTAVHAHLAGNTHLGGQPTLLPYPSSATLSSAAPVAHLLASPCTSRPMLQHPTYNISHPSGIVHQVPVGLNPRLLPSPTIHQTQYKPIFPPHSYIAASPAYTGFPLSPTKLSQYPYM

| SMILES | target | read-out | action | method | concentration | quantity | value |
| --- | --- | --- | --- | --- | --- | --- | --- |
| Cc1ccc(NC(=O)c2cc(S(=O)(=O)NC(C)(C)C)ccc2C)nc1 | Dihydroorotate dehydrogenase (quinone), mitochondrial (PFF0160c, Plasmodium falciparum, UniProt Q08210) | enzyme activity | inhibitor | absorbance | – | IC50 | 1330 nM |
| Cc1nn(C)cc1-c1nc2c(N3CCN(Cc4ccc(Cl)cc4)CC3)c(Cl)cnc2[nH]1 | Tyrosine-protein kinase ABL1, non-phosphorylated (ABL1, Homo sapiens, UniProt P00519, F317I) | binding | – | competition with immobilised ligand | 1 µM | remaining binding | 100% |
| O=C(CSc1nccn1C1CCCCC1)Nc1cc(C(F)(F)F)ccc1Cl | Dihydroorotate dehydrogenase (quinone), mitochondrial (PFF0160c, Plasmodium falciparum, UniProt Q08210, E182D) | enzyme activity | inhibitor | absorbance | – | IC50 | > 10000 nM |
| [2H]c1c([2H])c([C@]2([2H])CCCN2C(=O)C(C)(C)Oc2ccc3cn[nH]c3c2)c([2H])c([2H])c1C([2H])([2H])[2H] | Wee1-like protein kinase 2 (WEE2, Homo sapiens, UniProt P0C1S8) | binding | – | competition with immobilised ligand | 1 µM | remaining binding | 75% |
| C#Cc1n[nH]c2c(-c3cn([C@@H](C)c4ccccn4)c(=O)[nH]c3=O)cc(F)cc12 | Interleukin-1 receptor-associated kinase 1 (IRAK1, Homo sapiens, UniProt P51617) | enzyme activity | inhibitor | – | 0.1 µM | inhibition | 11.5% |
| CC(=O)N[C@@H](CCC(N)=O)C(=O)N[C@@H](Cc1ccccc1)C(=O)N[C@@H](CCCNC(=N)N)C(=O)c1nccs1 | TMPRSS2 | enzyme activity | inhibitor | – | 1 nM | activity vs control | 95% |
| CC(C)CC(=O)OC[C@H]1O[C@@](C#N)(c2ccc3c(N)ncnn23)[C@H](O)[C@@H]1O | Insulin receptor (INSR, Homo sapiens, UniProt P06213) | cell-free assay | – | – | 20 µM | inhibition | 0% |
| N=C(N)NCCC[C@H](N)C(=O)N[C@@H](CCC(N)=O)C(=O)N[C@@H](CCc1ccccc1)C(=O)N[C@H](CCCNC(=N)N)C(=O)c1nc2ccccc2s1 | TMPRSS2 | enzyme activity | inhibitor | – | 1 nM | activity vs control | 27% |
| COc1ncccc1-c1cnn2ccc(N3CCN(C(=O)OC(C)C)CC3)nc12 | Homeodomain-interacting protein kinase 3 (HIPK3, Homo sapiens, UniProt Q9H422) | binding | – | competition with immobilised ligand | 1 µM | remaining binding | 47% |
| CC[C@H](NC(=O)[C@H](CCc1ccccc1)NC(=O)CCc1ccccc1)C(=O)N[C@@H](CCCNC(=N)N)C(=O)c1nc2ccccc2s1 | TMPRSS2 | enzyme activity | inhibitor | – | 1 nM | activity vs control | 65% |
| Nc1ncc(-c2nc(N3CCOCC3)nc(N3CCOCC3)n2)c(C(F)F)n1 | Tyrosine-protein kinase ABL1, phosphorylated (ABL1, Homo sapiens, UniProt P00519, E255K) | binding | – | competition with immobilised ligand | 10 µM | remaining binding | 79% |

Some of these lines once more:
| SMILES | target | read-out | action | method | concentration | quantity | value |
| --- | --- | --- | --- | --- | --- | --- | --- |
| [2H]c1c([2H])c([C@]2([2H])CCCN2C(=O)C(C)(C)Oc2ccc3cn[nH]c3c2)c([2H])c([2H])c1C([2H])([2H])[2H] | Wee1-like protein kinase 2 (WEE2, Homo sapiens, UniProt P0C1S8) | binding | – | competition with immobilised ligand | 1 µM | remaining binding | 75% |
